Results pooled from the literature.
Numbered parts are unrelated; each lists some results of a single study.

Series 1
Target: Prothrombin, mature alpha-thrombin (F2, Homo sapiens, UniProt P00734)
Method: aptamer microarray, sandwich
Molecule type: DNA with 2'F-ANA
Matrix: in vitro
Tested at: 200 nM
Setting: whole 15-mer aptamer, many near background
Together with: Cy3 exosite-II aptamer, 400 nM
Reading: higher = stronger binding
Measurement: mean fluorescence intensity
Strand: GGTTGGTGTGGTTGG
2'F-ANA at 2 3 4 5 6 8 10 11 13 14 15: 55.1 a.u.
2'F-ANA at 5 6 7 8 14 15: 43.9 a.u.
2'F-ANA at 1 2 3 4 9 11 14 15: 56.1 a.u.
2'F-ANA at 1 3 8 9 15: 384 a.u.
2'F-ANA at 1 3 4 8 10 11 12 14 15: 48.5 a.u.
2'F-ANA at 1 5 8 9 10 12 14 15: 51.2 a.u.

Series 2
Target: Histone acetyltransferase KAT6A, winged helix 2, GST fusion (KAT6A, Homo sapiens, UniProt Q92794, residues 85-181)
Method: protein binding microarray
Molecule type: double-stranded DNA, one strand shown
Matrix: in vitro
Tested at: not given
Setting: 8-mer, flanks averaged, mean of 2 arrays, mostly near background
Relative to: not given
Reading: higher = stronger binding
Measurement: E-score
Construct (chain): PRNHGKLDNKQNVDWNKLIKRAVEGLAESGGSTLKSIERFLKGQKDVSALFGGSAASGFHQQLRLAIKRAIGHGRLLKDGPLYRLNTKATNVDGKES
AAGGATGC: -0.103
ACGACTAG: -0.0664
CCATGTGA: -0.191
AACTTGCG: 0.185
ACTGGAAC: -0.0888
GATAAGTA: -0.0267
GGTGTTAA: -0.0184

Series 3
Target: Interferon regulatory factor 3, full length, phosphomimetic (IRF3, Homo sapiens, UniProt Q14653, residues 1-427, S386D/S396D/S398D/S402D/T404D/S405D)
Method: protein-binding microarray
Molecule type: double-stranded DNA, one strand shown
Matrix: in vitro
Tested at: 2540 nM top
Setting: 60-bp whole probe
Together with: salmon DNA 0.4 mg/ml
Relative to: random background probes
Reading: higher = stronger binding
Measurement: fitted relative affinity
Constant ends, left off below: GCCTAGCAC … GTCTTGATTCGCTTGACGCTGCTG
Construct (chain): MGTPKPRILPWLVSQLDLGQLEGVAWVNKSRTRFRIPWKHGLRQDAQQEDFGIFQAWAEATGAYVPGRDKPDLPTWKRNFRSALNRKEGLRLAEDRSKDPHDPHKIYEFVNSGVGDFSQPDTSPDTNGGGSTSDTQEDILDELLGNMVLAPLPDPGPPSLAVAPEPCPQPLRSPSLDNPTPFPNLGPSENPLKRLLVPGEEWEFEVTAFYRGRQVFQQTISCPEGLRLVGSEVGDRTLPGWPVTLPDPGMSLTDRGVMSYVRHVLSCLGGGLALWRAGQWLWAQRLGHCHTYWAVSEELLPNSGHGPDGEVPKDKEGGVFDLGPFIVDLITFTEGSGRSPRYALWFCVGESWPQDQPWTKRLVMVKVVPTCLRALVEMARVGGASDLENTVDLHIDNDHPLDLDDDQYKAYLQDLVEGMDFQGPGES
GACGGTTTCGACTATCGGAACGTGCTA: 3.26 z-score
TTAGGACTGGACTTTCGGTTGGTGCTA: 0.376 z-score
GACGGTTTCGACACTGGGGAGGTGCTA: 3.23 z-score
GACGGACTGGGGTTCGGGACGTGCTAG: -0.723 z-score
GACGGTCTCGGACAGGGGACGTGCTAG: -0.0642 z-score
TTATGACTGGGTATCGGTTAGTGCTAG: 0.669 z-score
TTAGATTTCAGTTGCGATTAGTGCTAG: 1.61 z-score

Other studies, line by line
PhoQ, residues 284 288 289 292 302 303 TSTLRA — fold induction (PhoP, residues 12 14 15 18 19 SMASL (Escherichia coli, UniProt P23836); Sort-seq, item: YFP reporter; E. coli; PhoQ-PhoP variant library, together with: 10 µM Mg2+; relative to: high Mg2+ state, higher = stronger signaling): 3.37
